Results collected from several papers.
A part holds a random share of what one study measured. Several values in a cell are separate wells, animals, samples, runs or records. Substitutions count along the parent as printed.

Set 1
Target: Hepatocyte nuclear factor 3-beta, forkhead domain (FOXA2, Homo sapiens, UniProt Q9Y261, residues 142-269)
Technique: protein-binding microarray
Molecule type: hairpin DNA
Sample: in vitro
Concentration: not given
Setting: whole hairpin DNA, median over replicate spots
Relative to: not given
Direction: higher = stronger binding
Construct (chain): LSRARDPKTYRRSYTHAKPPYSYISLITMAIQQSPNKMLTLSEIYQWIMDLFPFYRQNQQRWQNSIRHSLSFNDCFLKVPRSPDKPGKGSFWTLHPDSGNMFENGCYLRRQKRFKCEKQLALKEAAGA
| Sequence | median fluorescence |
| --- | --- |
| GAGGCCATGCAAACCGCGCCTCCTGGCGCGGTTTGCATGGCCTCACACTC | 3510 a.u. |
| GAGGCCCGGTAACCAACGCCTCCTGGCGTTGGTTACCGGGCCTCACACTC (5mC at 7) | 3370 a.u. |
| GAGGCCATGCCGACAACGCCTCCTGGCGTTGTCGGCATGGCCTCACACTC (5mC at 11 33) | 3250 a.u. |
| GAGGCCATGTAACCAAAGCCTCCTGGCTTTGGTTACATGGCCTCACACTC | 2850 a.u. |
| GAGGCCACGTAACCAACGCCTCCTGGCGTTGGTTACGTGGCCTCACACTC (5mC at 36) | 3150 a.u. |
| GAGGCCATGCCAACAACGCCTCCTGGCGTTGTTGGCATGGCCTCACACTC | 3170 a.u. |
| GAGGCCATGTAAACAACGCCTCCTGGCGTTGTTTACATGGCCTCACACTC (5mC at 14) | 4570 a.u. |
| GAGGCCACGTAAACAACGCCTCCTGGCGTTGTTTACGTGGCCTCACACTC (5mC at 8 36) | 3820 a.u. |

Set 2
Target: ABI1, truncated, D143A, DHFR fusion (Arabidopsis thaliana, UniProt P49597)
Technique: DHFR PCA, dose-response
Sample: yeast
Setting: Hill fit, mean, not affinity
Added: (+)-ABA, dose series
Direction: lower = more sensitive
Starting sequence: PYL1, truncated, DHFR fusion (Arabidopsis thaliana, UniProt Q8VZS8); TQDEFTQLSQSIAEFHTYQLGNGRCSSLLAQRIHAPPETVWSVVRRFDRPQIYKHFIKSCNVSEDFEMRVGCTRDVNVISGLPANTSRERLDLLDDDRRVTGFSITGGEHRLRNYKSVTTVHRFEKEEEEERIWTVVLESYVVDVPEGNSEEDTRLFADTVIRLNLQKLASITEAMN
| Change | ABA EC50 [µM] |
| --- | --- |
| G71C | 321 |
| A30W | 2.28 |
| V121M | 127 |
| G71S | 72.6 |
| L164K | 9.6 |
| F124D | 3.09 |
| T39P | 39.3 |
| D65N | 2.17 |

Other studies, line by line
Host: human
| Structure (SMILES) | tested on | assay | test system | setting | how to read | measurement | value |
| --- | --- | --- | --- | --- | --- | --- | --- |
| COc1ccc2c(c1)c(=O)oc1cc(OC/C=C(/C)CCC=C(C)C)ccc12 |  |  | microsomes or S9 | 2 µM, 0.5 h |  | remaining compound | 88.3% |
| CC(=O)C1=C(C)N(c2cccc(C(F)(F)F)c2)C(=O)N[C@H]1c1ccc(C#N)nc1 | normal-adjacent epithelial organoid | cell viability, CellTiter-Glo | patient-derived organoid | 1 µM | relative to: DMSO | viability | 109% and 108% |

For quick reference, copied from above (set 2):
| Change | ABA EC50 [µM] |
| --- | --- |
| F124D | 3.09 |
